# Measurements gathered from unrelated publications.
# Parts stem from different laboratories: compare values within a part only.
# UniProt P51812, sequence (whole entry, looked up): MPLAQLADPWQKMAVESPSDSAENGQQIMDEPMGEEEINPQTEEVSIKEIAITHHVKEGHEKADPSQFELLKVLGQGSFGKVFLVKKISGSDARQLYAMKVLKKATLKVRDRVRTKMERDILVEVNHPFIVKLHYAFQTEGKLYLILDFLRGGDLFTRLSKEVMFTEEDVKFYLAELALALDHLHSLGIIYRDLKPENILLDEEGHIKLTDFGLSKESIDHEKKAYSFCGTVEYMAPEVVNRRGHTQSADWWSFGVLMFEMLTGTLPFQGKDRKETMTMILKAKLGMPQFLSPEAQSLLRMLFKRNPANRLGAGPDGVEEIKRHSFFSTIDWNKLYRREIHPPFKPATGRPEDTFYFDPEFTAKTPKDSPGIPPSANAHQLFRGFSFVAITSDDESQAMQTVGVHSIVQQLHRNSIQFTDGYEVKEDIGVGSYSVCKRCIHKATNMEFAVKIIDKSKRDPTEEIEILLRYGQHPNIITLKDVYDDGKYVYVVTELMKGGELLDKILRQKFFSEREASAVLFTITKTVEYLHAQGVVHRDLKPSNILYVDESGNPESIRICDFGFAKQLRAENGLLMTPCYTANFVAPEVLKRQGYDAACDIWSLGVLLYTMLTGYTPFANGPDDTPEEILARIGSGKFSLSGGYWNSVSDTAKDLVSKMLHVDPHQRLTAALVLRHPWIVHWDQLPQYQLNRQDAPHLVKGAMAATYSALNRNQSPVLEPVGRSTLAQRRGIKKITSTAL
# UniProt Q8WXR4, sequence (whole entry, looked up): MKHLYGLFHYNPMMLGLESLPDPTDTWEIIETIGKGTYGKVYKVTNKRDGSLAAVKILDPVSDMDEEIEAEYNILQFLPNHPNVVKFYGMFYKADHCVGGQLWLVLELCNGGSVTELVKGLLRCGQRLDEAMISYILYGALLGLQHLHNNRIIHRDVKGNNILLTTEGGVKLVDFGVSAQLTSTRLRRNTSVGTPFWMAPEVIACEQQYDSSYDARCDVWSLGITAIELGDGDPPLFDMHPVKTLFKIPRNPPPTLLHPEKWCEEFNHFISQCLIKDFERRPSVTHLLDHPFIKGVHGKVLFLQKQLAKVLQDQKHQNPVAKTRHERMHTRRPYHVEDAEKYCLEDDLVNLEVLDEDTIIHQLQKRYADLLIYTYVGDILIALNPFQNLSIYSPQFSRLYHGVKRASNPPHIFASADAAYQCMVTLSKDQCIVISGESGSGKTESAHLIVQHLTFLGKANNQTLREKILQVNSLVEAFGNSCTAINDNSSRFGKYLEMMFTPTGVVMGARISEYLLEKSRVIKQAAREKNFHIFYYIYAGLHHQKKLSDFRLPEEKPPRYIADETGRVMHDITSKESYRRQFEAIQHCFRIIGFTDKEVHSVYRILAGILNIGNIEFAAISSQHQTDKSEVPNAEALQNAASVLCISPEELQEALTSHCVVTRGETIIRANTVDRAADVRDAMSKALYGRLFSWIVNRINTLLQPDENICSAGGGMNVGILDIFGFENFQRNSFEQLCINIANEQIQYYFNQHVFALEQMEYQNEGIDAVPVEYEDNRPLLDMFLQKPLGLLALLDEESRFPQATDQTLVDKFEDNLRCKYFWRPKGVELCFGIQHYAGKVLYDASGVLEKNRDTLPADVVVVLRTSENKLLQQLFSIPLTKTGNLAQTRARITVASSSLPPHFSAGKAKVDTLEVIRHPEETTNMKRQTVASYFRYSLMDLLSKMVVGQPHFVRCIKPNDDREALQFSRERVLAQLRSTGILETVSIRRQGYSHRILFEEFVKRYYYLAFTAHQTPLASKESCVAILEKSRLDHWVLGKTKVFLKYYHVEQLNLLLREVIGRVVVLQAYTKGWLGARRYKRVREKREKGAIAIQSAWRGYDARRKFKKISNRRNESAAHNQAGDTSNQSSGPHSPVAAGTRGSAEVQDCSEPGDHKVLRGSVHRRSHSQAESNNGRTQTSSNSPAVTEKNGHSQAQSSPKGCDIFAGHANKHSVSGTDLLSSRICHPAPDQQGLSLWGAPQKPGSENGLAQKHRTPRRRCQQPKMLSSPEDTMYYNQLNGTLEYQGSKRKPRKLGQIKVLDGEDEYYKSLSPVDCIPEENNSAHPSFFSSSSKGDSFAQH
# UniProt Q96J92, sequence (whole entry, looked up): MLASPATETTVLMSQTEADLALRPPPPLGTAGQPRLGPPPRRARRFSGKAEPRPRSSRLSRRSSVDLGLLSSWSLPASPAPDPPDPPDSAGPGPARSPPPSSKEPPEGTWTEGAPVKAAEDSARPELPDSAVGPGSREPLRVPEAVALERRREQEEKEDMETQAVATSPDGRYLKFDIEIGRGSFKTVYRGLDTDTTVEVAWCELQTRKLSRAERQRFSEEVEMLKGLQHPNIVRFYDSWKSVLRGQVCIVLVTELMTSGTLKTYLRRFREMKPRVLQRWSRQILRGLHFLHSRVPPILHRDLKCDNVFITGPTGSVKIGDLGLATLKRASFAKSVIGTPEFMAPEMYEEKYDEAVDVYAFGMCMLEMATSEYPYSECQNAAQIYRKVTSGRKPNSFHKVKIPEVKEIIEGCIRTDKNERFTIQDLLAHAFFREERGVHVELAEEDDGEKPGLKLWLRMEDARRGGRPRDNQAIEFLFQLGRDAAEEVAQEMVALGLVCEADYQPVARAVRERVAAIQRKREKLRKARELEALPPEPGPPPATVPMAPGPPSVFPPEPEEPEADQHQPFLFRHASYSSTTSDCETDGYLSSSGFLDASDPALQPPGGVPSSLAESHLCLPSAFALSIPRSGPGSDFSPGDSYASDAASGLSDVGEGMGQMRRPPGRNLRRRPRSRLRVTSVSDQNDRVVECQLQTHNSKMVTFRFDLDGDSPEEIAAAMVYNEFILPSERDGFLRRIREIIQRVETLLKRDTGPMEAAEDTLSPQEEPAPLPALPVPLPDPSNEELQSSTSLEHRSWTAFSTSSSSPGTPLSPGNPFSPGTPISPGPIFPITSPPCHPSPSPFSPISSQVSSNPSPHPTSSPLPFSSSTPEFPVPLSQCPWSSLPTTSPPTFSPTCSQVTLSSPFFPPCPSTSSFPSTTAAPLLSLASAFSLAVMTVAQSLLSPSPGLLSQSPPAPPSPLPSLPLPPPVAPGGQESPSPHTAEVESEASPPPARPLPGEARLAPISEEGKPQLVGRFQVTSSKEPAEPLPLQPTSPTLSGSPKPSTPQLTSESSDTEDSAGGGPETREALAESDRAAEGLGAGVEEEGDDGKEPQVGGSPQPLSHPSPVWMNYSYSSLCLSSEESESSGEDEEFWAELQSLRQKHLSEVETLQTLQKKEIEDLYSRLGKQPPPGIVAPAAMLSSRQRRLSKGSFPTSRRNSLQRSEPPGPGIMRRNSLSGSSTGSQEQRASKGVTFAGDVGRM
# UniProt Q8NEB9, sequence (whole entry, looked up): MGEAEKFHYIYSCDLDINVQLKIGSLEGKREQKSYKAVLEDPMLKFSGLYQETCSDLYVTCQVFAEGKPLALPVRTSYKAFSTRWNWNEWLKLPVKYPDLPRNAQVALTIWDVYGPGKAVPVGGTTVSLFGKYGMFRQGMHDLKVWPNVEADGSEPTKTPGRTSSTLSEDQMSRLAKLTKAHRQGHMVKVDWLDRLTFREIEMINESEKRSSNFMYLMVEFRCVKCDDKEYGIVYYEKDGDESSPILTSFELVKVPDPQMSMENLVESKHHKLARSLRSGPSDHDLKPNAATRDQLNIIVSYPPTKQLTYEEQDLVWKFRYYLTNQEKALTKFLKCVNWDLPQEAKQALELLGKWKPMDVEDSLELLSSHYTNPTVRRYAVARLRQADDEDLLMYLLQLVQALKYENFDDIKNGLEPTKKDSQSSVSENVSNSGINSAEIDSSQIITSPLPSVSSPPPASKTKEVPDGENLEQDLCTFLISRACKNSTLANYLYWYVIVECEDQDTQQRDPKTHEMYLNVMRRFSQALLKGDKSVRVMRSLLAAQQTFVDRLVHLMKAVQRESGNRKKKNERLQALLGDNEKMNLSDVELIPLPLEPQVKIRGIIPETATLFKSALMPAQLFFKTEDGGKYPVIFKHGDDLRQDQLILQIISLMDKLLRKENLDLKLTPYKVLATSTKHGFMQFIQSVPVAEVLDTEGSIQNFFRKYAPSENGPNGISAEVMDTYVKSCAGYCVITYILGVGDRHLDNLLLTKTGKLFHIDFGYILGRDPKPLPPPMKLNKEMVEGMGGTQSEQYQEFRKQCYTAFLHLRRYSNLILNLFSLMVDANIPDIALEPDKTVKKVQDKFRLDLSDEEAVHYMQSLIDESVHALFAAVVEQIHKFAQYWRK
# UniProt Q9NYL2, sequence (whole entry, looked up): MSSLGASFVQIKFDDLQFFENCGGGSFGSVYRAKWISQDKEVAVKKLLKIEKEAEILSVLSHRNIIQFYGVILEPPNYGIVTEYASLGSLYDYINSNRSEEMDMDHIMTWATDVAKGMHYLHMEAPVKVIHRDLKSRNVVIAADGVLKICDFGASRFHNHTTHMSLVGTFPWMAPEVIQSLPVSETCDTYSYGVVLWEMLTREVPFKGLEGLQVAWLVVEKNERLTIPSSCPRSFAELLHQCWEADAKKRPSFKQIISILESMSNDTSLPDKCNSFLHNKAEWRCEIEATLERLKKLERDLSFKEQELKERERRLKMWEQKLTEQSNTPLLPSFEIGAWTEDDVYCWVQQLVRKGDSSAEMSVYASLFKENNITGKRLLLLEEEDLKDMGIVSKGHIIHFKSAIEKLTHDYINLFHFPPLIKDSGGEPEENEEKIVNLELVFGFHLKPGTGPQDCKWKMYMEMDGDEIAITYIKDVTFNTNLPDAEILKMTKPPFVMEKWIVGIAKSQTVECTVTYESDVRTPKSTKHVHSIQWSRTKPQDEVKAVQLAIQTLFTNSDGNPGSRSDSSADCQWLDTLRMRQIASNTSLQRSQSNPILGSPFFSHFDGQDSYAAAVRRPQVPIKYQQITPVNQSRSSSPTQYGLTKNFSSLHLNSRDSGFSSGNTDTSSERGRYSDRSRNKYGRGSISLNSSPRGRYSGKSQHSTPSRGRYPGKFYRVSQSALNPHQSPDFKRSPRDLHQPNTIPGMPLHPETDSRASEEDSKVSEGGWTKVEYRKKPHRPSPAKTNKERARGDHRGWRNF

# Study 1
# SMILES: CCN(CC)C(=O)c1ccc(Nc2nc(OCC3CCCCC3)c3[nH]cnc3n2)cc1
# Read-out: enzyme activity
# Mode: inhibitor
# Concentration: 0.5 µM
# Baseline: control
target,remaining activity [%]
"CSNK1D (Homo sapiens, UniProt P48730)",102
"CSNK1E (Homo sapiens, UniProt P49674)",95.6
"MAP3K20 (Homo sapiens, UniProt Q9NYL2)",91.4
"PAK1 (Homo sapiens, UniProt Q13153)",93.8
"Cyclin-dependent kinase 2, with cyclin E (CDK2, Homo sapiens, UniProt P24941)",76.5
"IGF1R (Homo sapiens, UniProt P08069)",28.4
"TEC (Homo sapiens, UniProt P42680)",63
"RPS6KA3 (Homo sapiens, UniProt P51812)",17.6

# Study 2
# Structure (SMILES): COc1ccc2cc(OCC3(C(=O)O)CN(C(=O)c4ccc(F)cc4)C3)ccc2c1
# Method: competition with immobilised ligand
# Concentration: 1 µM
target,read-out,remaining binding
"WNK4 (Homo sapiens, UniProt Q96J92)",cell-free assay,79%
"NEK7 (Homo sapiens, UniProt Q8TDX7)",cell-free assay,100%
"FLT3 (Homo sapiens, UniProt P36888, D835V)",cell-free assay,100%
"FLT3 (Homo sapiens, UniProt P36888, D835Y)",cell-free assay,100%
"Myosin-IIIb (MYO3B, Homo sapiens, UniProt Q8WXR4)",binding,71%
"DDR2 (Homo sapiens, UniProt Q16832)",cell-free assay,100%
"ACVR2B (Homo sapiens, UniProt Q13705)",binding,100%
"SGK2 (Homo sapiens, UniProt Q9HBY8)",cell-free assay,87%
"EGFR (Homo sapiens, UniProt P00533, del747-752/P753S)",cell-free assay,87%
"ROCK2 (Homo sapiens, UniProt O75116)",cell-free assay,100%
"NEK4 (Homo sapiens, UniProt P51957)",cell-free assay,94%
"PIK3C3 (Homo sapiens, UniProt Q8NEB9)",cell-free assay,100%
"ACVR2A (Homo sapiens, UniProt P27037)",cell-free assay,100%

# Study 3
# Host: human
# Matrix: microsomes or S9
# Concentration: 2 µM
# Time: 0.5 h
Structure (SMILES),remaining compound
N=C(NS(=O)(=O)c1ccccc1)c1ccccc1,82.7%
CCOc1cc(C#N)ccc1OCc1nc(-c2cccs2)no1,61.5%
COc1ccc(-c2noc(Cn3cnc4c(cnn4-c4ccc(Cl)cc4)c3=O)n2)cc1,33.4%
O=C(c1ccoc1)N1CC(c2nnc(-c3ccncc3)o2)C2(CCOCC2)C1 (stereo not shown),> 100%
O=c1[nH]c(O)ncc1S(=O)(=O)Nc1cccc2ccccc12,97.5%
Cc1cccc(C2=C(N)OC(c3ccc(Cl)cc3)C2=O)n1 (stereo not shown),11.8%

# Further values, each from its own experiment
SMILES,matrix,quantity,value
CCC[C@H]1NC(=O)CSC[C@@H](C(=O)OCC)N(C)C(=O)[C@H](CC(C)C)NC(=O)[C@H](C)N(C)C(=O)[C@@H](CC(C)C)NC(=O)[C@H](C)N(C)C(=O)[C@@H]2CCCN2C(=O)[C@@H](CC(C)C)NC(=O)CN(C)C1=O,hydrocarbon/water,logD,0.37
